Measurements pooled from the literature.
Lines come from different studies, so protocols differ. ± gives the spread as reported. Values after ≈ are worked out from the molar mass of the structure shown.

| SMILES | tested on | assay | test system | setting | how to read | quantity | result |
| --- | --- | --- | --- | --- | --- | --- | --- |
| CCN(CC)C(=O)Oc1ccc(C(=O)Nc2cccc3cc[nH]c23)cc1 | – | NMDA receptor EPSC, inhibitor, whole-cell patch clamp | CA1 pyramidal neurons, mouse, hippocampal slices | 10 µM | reference: control | peak amplitude | 100 ± 3.5% |
| O=c1ccc2ccc(OCc3ccc([N+](=O)[O-])o3)cc2o1 | Mycobacterium tuberculosis | – | mc2 6206 bedaquiline-resistant MmpL5 regulator mutant | 7 days | – | MIC90 | 15.6 µM (≈ 4.48 µg/mL) |
| CCN1CCN(Cc2ccc(NC(=O)c3ccc(C)c(/C=C/c4cnc5[nH]ccc5c4OC)c3)cc2C(F)(F)F)CC1 | MAP3K20 (Homo sapiens, UniProt Q9NYL2) | inhibitor, kinome profiling | human cells | 5 µM | reference: vehicle | log2 fold change | 0.242 |
| CCC(C)C1NC(=O)/C(=C(/C)O)C1=O (stereo not drawn) | Arabidopsis thaliana | apo-pHusion imaging | elongating root cells | 10 µM | – | apoplastic pH | ~7 |
| C[C@]12CCC(=O)C=C1CCC1C2CC[C@]2(C)C(n3cnc4ccccc43)=CCC12 (stereo partly drawn) | LAPC4 | cell proliferation, MTT | – | 7 days, added: DHT 10 nM | – | IC50 | 1000 nM |
| CCCOc1ccc2nc3ccc(=O)cc-3oc2c1 | Mycobacterium tuberculosis | – | mc2 6206 clofazimine-resistant fbiC mutant | 7 days | – | MIC90 | 7.1 µM (≈ 1.81 µg/mL) |
| C[C@H]1COc2c(N3CCN(C)CC3)c(F)cc3c(=O)c(C(=O)O)cn1c23 | Staphylococcus aureus topoisomerase IV GrlA S81Y | DNA cleavage | – | – | – | CC3 | 15 µM |
| CCCCCCC1c2ccc(O)cc2Oc2cc(O)ccc21 | Klebsiella pneumoniae | – | BARB 105 | – | – | MIC | > 373 µg/mL |
| O=c1ccc2nc3ccc(OCc4ccccc4)cc3oc-2c1I | Mycobacterium tuberculosis | – | mc2 6206 PA-824-resistant ddn mutant | 7 days | – | MIC90 | 96 µM (≈ 41.2 µg/mL) |
| CC(C)Cc1nnc2c(C(=O)NC3c4ccccc4-c4ccccc43)cccn12 | Escherichia coli | broth microdilution | MB5746 rpoZ Δ24-91 frameshift | – | reference: mutant over wild type | MIC ratio | > 32 |
| CC[C@H](C)[C@@H]1NC(=O)[C@H](CCC(=O)O)NC(=O)[C@@H]2CCCN2C(=O)[C@H](Cc2c[nH]cn2)NC(=O)[C@H](CC(=O)O)NC(=O)[C@H](Cc2ccc(O)cc2)NC(=O)[C@H](CC(N)=O)NC(=O)[C@@H]2CSSC[C@@H]3NC(=O)CNC(=O)CNC(=O)CNC(=O)[C@H](C)NC(=O)[C@H](C)NC(=O)CNC(=O)CNC(=O)[C@H](CSSC[C@H](NC3=O)C(=O)N[C@@H](CO)C(=O)N[C@@H](CC(=O)O)C(=O)N3CCC[C@H]3C(=O)N[C@@H](CCCNC(=N)N)C(=O)N2)NC1=O | Cav2.1 human Q1856E | Ba2+ current | – | 200 nM | – | inhibition | 6.6 ± 1.7% |
| O=C(N/N=C/c1cc([N+](=O)[O-])ccc1O)c1ccc(O)cc1O | PHGDH-amplified breast cancer | cell viability, MTT | – | serine-replete medium | – | EC50 | < 10000 nM |
| CC1CCC2(CC1)OOCN(CCCCCCCCCCN1COOC3(CCC(C)CC3)OOC3(CCC(C)CC3)OOC1)COOC1(CCC(C)CC1)OO2 (stereo not drawn) | K562 | cytotoxicity, 7-AAD flow cytometry | – | – | – | IC50 | 3270 ± 150 nM |
| CC#C/C(=N\OC[C@H]1COCCN1)c1ccc2ncnc(Nc3ccc(OCc4cccc(F)c4)c(Cl)c3)c2c1 | MDA-MB-175-VII | cell growth, WST-8 | – | 72 h | – | IC50 | 21.6 ± 4.3 nM |
| CCOC(=O)OCOc1c(-c2ccc(Oc3ccc(OC(F)(F)F)cc3)cc2)c(C)nc2cc(OC)c(Cl)cc12 | Plasmodium yoelii | parasitemia suppression | mouse | oral, 4 days, PEG-400 vehicle | – | ED50 | 0.02 mg/kg/day |
| CCc1nc(N)nc(N)c1C#CCc1cc(OC)cc(-c2ccc(C(=O)O)cc2)c1 | Staphylococcus aureus | – | MRSA isolate UCH 127 | – | – | MIC | 5 µg/mL (≈ 12.4 µM) |
| Cc1ccc(S(=O)(=O)N(C)CC(=O)N(Cc2ccc(C3CCCCC3)cc2)c2ccc(C(=O)O)c(O)c2)cc1 | – | – | MDA-MB-231 xenograft, athymic nude mouse, tumour | intravenous, 3 mg/kg | reference: vehicle | Stat3 Tyr705 phosphorylation | decreased |
| CSCOc1ccc2nc3ccc(=O)cc-3oc2c1 | Mycobacterium tuberculosis | – | mc2 6206 PA-824-resistant ddn mutant | 7 days | – | MIC90 | 42 µM (≈ 11.5 µg/mL) |
| CSc1nc(Cl)cc(Sc2nnc(-c3cc(C(F)(F)F)cc(C(F)(F)F)c3)[nH]2)n1 | Shigella flexneri | – | ATCC 12022 | no additive | – | MIC | > 590 µg/mL |
| c1ccc(Nc2cccc3ccccc23)cc1 | Manis javanica OBP3 I101A | binding, fluorescence binding | – | added: 1-NPN probe | – | Kd | 830 ± 270 nM |
| O=c1ccc2nc3ccc(OCc4ccc([N+](=O)[O-])o4)cc3oc-2c1 | Mycobacterium tuberculosis | – | mc2 6206 bedaquiline-resistant MmpL5 regulator mutant | 7 days | – | MIC90 | 0.31 µM (≈ 0.105 µg/mL) |

Some of these lines once more:
| SMILES | tested on | assay | test system | setting | how to read | quantity | result |
| --- | --- | --- | --- | --- | --- | --- | --- |
| C[C@]12CCC(=O)C=C1CCC1C2CC[C@]2(C)C(n3cnc4ccccc43)=CCC12 (stereo partly drawn) | LAPC4 | cell proliferation, MTT | – | 7 days, added: DHT 10 nM | – | IC50 | 1000 nM |
| CCCOc1ccc2nc3ccc(=O)cc-3oc2c1 | Mycobacterium tuberculosis | – | mc2 6206 clofazimine-resistant fbiC mutant | 7 days | – | MIC90 | 7.1 µM (≈ 1.81 µg/mL) |
| C[C@H]1COc2c(N3CCN(C)CC3)c(F)cc3c(=O)c(C(=O)O)cn1c23 | Staphylococcus aureus topoisomerase IV GrlA S81Y | DNA cleavage | – | – | – | CC3 | 15 µM |
